Measured values from different studies.
Parts stem from different laboratories: compare values within a part only.

Series 1
Target: Sal-like protein 4, full length isoform B (SALL4, Homo sapiens, UniProt Q9UJQ4-2, residues 1-616)
Technique: universal PBM
Molecule type: double-stranded DNA, one strand shown
Sample: in vitro
Concentration: not given
Setting: 8-mer, flanks averaged, mean of replicates
Reading: higher = stronger binding
Strand | E-score
ATAAGCTG | 0.14
AGTGAACT | -0.0399
AGCAACTC | -0.196
ACGACCAC | -0.252
AAACTCCT | -0.101
CATTTGGC | -0.0435
CCGGGCGA | -0.265
CAAGTCGC | -0.235

Series 2
Target: Histone acetyltransferase KAT6A, winged helix 1, GST fusion (KAT6A, Homo sapiens, UniProt Q92794, residues 1-85)
Technique: protein binding microarray
Molecule type: double-stranded DNA, one strand shown
Sample: in vitro
Concentration: not given
Setting: 8-mer, flanks averaged, mean of 2 arrays, mostly near background
Baseline: not given
Reading: higher = stronger binding
Target sequence (chain): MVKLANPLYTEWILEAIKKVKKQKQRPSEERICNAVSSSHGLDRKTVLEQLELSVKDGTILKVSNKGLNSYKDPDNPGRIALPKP
Strand | E-score
ACTCGTAT | -0.202
ATGTCCGC | 0.293
ACCACTCC | 0.0464
CAGTGCCA | -0.246
ACGACCTC | -0.00823
AGGACCGA | 0.0854
GTAGCCAC | -0.119
CGTGTAAA | -0.0542
AAACGTTT | -0.123

Series 3
Target: Interferon regulatory factor 7, full length, phosphomimetic (IRF7, Homo sapiens, UniProt Q92985, residues 1-503, S101K/S471D/S472D/S475D/S476D/S477D/S483D/S484D/S487D)
Technique: protein-binding microarray
Molecule type: double-stranded DNA, one strand shown
Sample: in vitro
Concentration: 250 nM
Setting: 60-bp whole probe
Added: salmon DNA 0.4 mg/ml
Baseline: random background probes
Reading: higher = stronger binding
Shared flanks, not repeated: GCCTAGCAC … GTCTTGATTCGCTTGACGCTGCTG
Residues (chain): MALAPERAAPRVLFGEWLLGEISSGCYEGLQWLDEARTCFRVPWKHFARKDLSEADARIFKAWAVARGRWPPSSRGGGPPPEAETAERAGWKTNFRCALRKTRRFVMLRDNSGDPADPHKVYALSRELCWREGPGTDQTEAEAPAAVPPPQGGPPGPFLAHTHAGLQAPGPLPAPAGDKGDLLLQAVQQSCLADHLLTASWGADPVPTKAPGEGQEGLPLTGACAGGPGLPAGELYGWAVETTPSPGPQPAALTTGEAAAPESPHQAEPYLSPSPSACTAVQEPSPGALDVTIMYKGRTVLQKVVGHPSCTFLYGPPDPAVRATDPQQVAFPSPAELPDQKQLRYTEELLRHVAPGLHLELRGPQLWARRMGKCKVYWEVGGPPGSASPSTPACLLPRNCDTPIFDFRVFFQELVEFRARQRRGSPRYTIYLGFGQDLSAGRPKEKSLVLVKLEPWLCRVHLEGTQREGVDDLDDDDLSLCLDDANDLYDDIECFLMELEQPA
Strand | log fluorescence [z-score]
TCAAGTCCCTATCTCCTACTGTGCTAG | 0.769
AGGCATGTGGGTTCCATCATGTGCTAG | -0.602
TGGCACCTCTAGACTCTAAATGTGCTA | -0.825
TCATTTTTCCCCTGCACACTGTGCTAG | 1.51
TTAGGTATCGACTTTCGGTTCGTGCTA | 5.07
TCATCAATCATTTTAGTACTGTGCTAG | 0.517
TGAGATATCGGGTATCGATTAGTGCTA | 0.62
TCAACTCTCTACATGTGACTGTGCTAG | 0.0464
GACGGTATCCTACTGTTGACGTGCTAG | -0.0263
TTAGATTTAAGTATCGATTAGTGCTAG | 0.894
TCAAGTTTCTATTTTCTACTGTGCTAG | 7.76

Single results of other studies
Molecule | target | test | test system | conditions | scale | quantity | result
PhoQ, residues 284 288 289 292 302 303 AGGLSV | PhoP, residues 12 14 15 18 19 HHYTI (Escherichia coli, UniProt P23836) | Sort-seq, measured: YFP reporter | E. coli | PhoQ-PhoP variant library, added: 10 µM Mg2+ | baseline: high Mg2+ state, higher = stronger signaling | fold induction | 0.479

Repeated from above (series 1):
Strand | E-score
ATAAGCTG | 0.14
CAAGTCGC | -0.235
